Results gathered from unrelated publications.
Each line is one published result; not all experiments were run side by side. Several values in a cell are separate wells, animals, samples, runs or records.
Sequence of UniProt D0VWV4 (whole entry, looked up): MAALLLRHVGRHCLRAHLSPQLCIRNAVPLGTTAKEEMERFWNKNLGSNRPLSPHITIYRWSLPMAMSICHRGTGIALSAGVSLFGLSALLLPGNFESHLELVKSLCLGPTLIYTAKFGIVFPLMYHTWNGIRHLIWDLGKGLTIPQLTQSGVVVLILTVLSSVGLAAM
Sequence of UniProt A5GZW8 (whole entry, looked up): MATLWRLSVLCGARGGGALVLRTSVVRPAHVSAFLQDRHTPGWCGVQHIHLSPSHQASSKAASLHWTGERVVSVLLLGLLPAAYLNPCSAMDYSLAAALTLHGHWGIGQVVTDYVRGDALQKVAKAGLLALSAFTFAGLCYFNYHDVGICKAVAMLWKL
Sequence of UniProt Q007T0 (whole entry, looked up): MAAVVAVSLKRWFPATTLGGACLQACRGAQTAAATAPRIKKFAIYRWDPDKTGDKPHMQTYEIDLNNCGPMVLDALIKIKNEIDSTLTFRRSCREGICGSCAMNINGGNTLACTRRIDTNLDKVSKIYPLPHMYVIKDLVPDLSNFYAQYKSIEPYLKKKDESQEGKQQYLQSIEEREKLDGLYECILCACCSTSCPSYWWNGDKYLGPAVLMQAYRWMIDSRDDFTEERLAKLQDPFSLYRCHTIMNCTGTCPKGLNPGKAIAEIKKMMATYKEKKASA
Sequence of UniProt Q9H093 (whole entry, looked up): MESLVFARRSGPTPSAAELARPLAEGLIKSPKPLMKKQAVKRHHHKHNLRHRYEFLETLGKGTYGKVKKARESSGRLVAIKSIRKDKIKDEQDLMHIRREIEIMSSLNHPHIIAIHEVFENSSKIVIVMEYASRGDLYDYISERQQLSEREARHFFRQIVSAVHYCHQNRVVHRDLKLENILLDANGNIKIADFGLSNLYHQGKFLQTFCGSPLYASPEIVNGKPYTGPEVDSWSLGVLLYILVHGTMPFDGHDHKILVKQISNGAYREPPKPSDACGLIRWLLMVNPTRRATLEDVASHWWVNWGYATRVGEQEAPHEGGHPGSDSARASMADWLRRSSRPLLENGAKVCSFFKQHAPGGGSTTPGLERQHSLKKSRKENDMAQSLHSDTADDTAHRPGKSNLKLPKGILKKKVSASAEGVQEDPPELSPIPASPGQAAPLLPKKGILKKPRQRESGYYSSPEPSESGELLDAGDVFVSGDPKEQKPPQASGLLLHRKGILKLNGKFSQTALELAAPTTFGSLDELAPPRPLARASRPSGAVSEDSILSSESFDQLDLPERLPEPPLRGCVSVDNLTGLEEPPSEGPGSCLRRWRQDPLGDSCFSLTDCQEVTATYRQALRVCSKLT
Sequence of UniProt P43140 (whole entry, looked up): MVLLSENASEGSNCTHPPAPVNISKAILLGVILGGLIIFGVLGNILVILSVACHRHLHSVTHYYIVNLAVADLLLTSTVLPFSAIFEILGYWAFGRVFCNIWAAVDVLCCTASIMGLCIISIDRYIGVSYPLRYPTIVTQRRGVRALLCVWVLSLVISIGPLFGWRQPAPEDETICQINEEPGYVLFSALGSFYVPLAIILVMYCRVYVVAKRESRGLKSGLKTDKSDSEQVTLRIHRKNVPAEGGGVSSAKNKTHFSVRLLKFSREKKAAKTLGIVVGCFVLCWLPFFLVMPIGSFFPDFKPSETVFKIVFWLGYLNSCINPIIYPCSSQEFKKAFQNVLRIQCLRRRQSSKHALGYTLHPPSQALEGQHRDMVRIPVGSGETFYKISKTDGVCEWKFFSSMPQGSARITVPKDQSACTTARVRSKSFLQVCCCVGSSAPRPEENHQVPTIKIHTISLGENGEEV
Sequence of UniProt Q15393 (whole entry, looked up): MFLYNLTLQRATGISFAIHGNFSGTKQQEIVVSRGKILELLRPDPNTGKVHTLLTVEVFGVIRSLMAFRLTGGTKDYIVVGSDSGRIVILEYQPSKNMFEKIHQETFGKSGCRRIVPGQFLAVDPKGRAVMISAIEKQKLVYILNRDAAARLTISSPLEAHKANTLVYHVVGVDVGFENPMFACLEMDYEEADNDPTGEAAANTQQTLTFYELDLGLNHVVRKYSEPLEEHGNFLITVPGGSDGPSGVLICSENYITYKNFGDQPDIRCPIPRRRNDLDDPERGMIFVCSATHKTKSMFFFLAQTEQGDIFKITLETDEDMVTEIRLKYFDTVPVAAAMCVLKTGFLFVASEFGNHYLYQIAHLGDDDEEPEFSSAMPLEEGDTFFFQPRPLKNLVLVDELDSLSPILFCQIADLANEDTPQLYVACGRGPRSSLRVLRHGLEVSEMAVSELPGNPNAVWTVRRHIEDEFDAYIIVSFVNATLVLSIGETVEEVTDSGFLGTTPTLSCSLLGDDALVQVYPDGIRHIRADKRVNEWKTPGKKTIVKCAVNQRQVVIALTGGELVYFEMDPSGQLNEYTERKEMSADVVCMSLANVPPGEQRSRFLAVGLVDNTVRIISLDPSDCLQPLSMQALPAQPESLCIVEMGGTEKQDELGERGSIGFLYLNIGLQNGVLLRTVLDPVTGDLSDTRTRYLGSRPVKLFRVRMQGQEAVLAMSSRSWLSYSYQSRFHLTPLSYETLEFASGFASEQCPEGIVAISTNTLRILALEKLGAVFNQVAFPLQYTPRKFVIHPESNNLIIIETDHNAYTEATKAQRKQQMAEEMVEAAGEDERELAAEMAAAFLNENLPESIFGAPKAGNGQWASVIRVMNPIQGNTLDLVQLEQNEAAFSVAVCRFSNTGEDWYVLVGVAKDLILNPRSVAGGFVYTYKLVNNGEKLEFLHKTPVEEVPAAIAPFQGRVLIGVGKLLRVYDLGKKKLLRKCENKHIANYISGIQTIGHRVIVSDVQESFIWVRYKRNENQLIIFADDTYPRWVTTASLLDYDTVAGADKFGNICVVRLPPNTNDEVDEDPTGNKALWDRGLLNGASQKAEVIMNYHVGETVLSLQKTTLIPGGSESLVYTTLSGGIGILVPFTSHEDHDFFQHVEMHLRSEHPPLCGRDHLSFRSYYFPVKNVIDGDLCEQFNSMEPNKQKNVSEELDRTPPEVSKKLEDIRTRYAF
Sequence of UniProt Q9UBS5 (whole entry, looked up): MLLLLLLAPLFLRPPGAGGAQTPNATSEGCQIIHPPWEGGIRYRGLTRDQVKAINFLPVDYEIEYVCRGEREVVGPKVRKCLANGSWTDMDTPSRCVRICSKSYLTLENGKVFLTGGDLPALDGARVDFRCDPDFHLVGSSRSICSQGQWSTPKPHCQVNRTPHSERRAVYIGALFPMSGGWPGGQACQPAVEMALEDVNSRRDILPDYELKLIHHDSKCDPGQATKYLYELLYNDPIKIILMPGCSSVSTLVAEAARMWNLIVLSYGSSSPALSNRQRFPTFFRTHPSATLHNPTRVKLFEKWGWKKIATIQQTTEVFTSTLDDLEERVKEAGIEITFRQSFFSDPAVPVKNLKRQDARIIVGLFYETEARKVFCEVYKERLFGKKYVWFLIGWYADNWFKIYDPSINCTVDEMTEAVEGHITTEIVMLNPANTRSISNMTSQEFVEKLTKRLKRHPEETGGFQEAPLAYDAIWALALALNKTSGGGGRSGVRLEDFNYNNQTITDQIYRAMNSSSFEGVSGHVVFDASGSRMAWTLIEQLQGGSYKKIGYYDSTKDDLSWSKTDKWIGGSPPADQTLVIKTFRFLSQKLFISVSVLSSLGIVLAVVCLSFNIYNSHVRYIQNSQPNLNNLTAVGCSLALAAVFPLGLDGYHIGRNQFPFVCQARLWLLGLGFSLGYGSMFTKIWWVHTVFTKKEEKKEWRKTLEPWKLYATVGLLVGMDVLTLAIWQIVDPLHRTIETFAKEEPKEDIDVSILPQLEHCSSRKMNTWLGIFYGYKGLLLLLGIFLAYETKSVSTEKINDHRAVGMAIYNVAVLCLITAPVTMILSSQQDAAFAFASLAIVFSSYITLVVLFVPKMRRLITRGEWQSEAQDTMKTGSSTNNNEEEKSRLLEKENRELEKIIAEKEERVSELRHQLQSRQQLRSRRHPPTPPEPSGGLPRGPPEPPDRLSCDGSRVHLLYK
Sequence of UniProt O43353 (whole entry, looked up): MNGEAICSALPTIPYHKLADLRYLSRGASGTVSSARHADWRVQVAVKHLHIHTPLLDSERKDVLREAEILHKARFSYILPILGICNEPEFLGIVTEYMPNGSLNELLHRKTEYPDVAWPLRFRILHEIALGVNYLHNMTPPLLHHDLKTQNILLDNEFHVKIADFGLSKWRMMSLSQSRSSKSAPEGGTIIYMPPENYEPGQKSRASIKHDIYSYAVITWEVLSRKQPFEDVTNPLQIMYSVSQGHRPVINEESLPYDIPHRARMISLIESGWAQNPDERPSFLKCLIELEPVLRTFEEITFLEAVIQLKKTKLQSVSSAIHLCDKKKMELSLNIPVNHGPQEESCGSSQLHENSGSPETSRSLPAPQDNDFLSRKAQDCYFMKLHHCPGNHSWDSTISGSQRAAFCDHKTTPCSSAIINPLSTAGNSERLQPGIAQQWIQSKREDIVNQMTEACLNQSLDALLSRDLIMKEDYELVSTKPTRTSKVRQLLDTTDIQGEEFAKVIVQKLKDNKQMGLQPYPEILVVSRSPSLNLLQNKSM
Sequence of UniProt P30559 (whole entry, looked up): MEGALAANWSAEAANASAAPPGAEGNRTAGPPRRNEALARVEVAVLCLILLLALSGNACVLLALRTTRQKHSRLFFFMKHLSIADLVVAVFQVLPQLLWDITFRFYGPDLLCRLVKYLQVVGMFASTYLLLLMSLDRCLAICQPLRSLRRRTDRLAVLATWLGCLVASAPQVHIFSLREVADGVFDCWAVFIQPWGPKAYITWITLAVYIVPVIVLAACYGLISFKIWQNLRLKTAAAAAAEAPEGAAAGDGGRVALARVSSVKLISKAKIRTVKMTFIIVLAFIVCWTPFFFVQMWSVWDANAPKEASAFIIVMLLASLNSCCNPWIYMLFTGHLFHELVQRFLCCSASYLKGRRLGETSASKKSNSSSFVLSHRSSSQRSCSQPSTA

| SMILES | target | test | system | setting | how to read | measurement | result |
| --- | --- | --- | --- | --- | --- | --- | --- |
| COc1ccc(N2C(=O)N(c3c(C)cccc3Cl)Cc3cnc(Nc4ccc(C5CCN(C)CC5)cc4OC)nc32)nc1 | NUAK family SNF1-like kinase 2 (NUAK2, Homo sapiens, UniProt Q9H093) | kinase activity | – | 0.5 µM | – | inhibition | 16% |
| COc1cc(Nc2ncc(F)c(Nc3ccc4c(n3)NC(=O)C(C)(C)O4)n2)cc(OC)c1OC | Receptor-interacting serine/threonine-protein kinase 2 (RIPK2, Homo sapiens, UniProt O43353) | KINOMEscan | – | 10 µM | – | inhibition | 85% |
| O=C(c1ccc(Cl)cc1)N1CCN2C(=O)N(OC(=O)N3CCOc4ccccc43)C(=O)C2C1 (stereo not shown) | Acylamino-acid-releasing enzyme (APEH, Homo sapiens, UniProt P13798) | MS-based ABPP | SW-620 conditioned medium | 10 µM, 1 h, 37 °C | reference: treated over control | mean protein ratio | 1.13 |
| [2H]c1c([2H])c([C@]2([2H])CCCN2C(=O)C(C)(C)Oc2ccc3cn[nH]c3c2)c([2H])c([2H])c1C([2H])([2H])[2H] | Myosin light chain kinase 2, skeletal/cardiac muscle (MYLK2, Homo sapiens, UniProt Q9H1R3) | KINOMEscan | – | 1 µM | reference: DMSO control | remaining binding | 82% |
| O=C(Nc1cccnn1)N1CCC(=Cc2cccc(Oc3ccc(C(F)(F)F)cn3)c2)CC1 | Gamma-aminobutyric acid type B receptor subunit 1 (GABBR1, Homo sapiens, UniProt Q9UBS5) | radioligand binding | – | 10 µM, with: [3H]CGP-54626 | – | inhibition of binding | 12% |
| C=C(CN(C(=O)c1c(C(F)F)nn(C)c1F)C1CC1)c1ccc(Cl)cc1Cl | SDHD/SDHC/SDHB (Sus scrofa, UniProt A5GZW8+D0VWV4+Q007T0) | enzyme activity, inhibitor, DCIP reduction | pig | 0.4 µM, with: DCIP 190 µM | – | reaction velocity | 0.0198 µM/s and 0.0181 µM/s and 0.0179 µM/s |
| O=C(Nc1cnccc1Cl)N1CCN(Cc2ccc3c(c2)OC(F)(F)O3)CC1 | IP3 receptor, rat | binding | – | 10 µM, with: [3H]IP3 | – | inhibition | 15% |
| CN1CCN(c2cc(-c3ccncc3)c(-c3ccc4ccccc4c3)nn2)CC1 | Oxytocin receptor (OXTR, Homo sapiens, UniProt P30559) | antagonist, FLIPR | – | 10 µM | – | inhibition | -8.8% |
| CN(C(=O)n1cnc(-c2ccc[n+]([O-])c2)c1)C1CCCCC1 | Alpha-1A adrenergic receptor (Adra1a, Rattus norvegicus, UniProt P43140) | radioligand binding | – | 10 µM, with: [3H]prazosin | – | inhibition | 4% |
| C[C@H]1CN(c2n[nH]c3nc(N[C@H]4CC[C@H](NS(=O)(=O)CCC(F)(F)F)CC4)ncc23)CCO1 | Splicing factor 3B subunit 3 (Homo sapiens, UniProt Q15393) | Kinobeads competition, item: SF3B3 | – | 0.16 µM, unit not given | reference: vehicle | remaining binding | 1.13 |

Repeated from above:
| SMILES | target | test | system | setting | how to read | measurement | result |
| --- | --- | --- | --- | --- | --- | --- | --- |
| CN1CCN(c2cc(-c3ccncc3)c(-c3ccc4ccccc4c3)nn2)CC1 | Oxytocin receptor (OXTR, Homo sapiens, UniProt P30559) | antagonist, FLIPR | – | 10 µM | – | inhibition | -8.8% |
